Results from different studies.
Each line is one published result; not all experiments were run side by side. Values joined by “and” are separate records of one study, mostly repeats; a detail may differ. ± marks the error that the study gave.

SMILES	cell line	test	setting	how to read	endpoint	result
C[N+](C)(C)CCCC(=O)O.[Cl-]	HCT-8 infected with Cryptosporidium parvum	Hoechst nuclei count	1 mM, 24 h	relative to: PBS	host cell number	1.02 ± 0.082
CC(=O)Nc1cccc(-n2c(=O)n(C3CC3)c(=O)c3c(Nc4ccc(I)cc4F)n(C)c(=O)c(C)c32)c1	MeWo	resazurin	6.25 nM, 72 h, unit not given	relative to: DMSO	viability	0.793 and 0.601
Cc1cnc(Nc2ccc(OCCN3CCCC3)cc2)nc1Nc1cccc(S(=O)(=O)NC(C)(C)C)c1	MDCK	permeability basolateral to apical	1 µM, 90 min, pH 7.4 apical to 7.4 basolateral		Papp	1.08 ×10⁻⁶ cm/s and 1.15 ×10⁻⁶ cm/s
COc1ccc(Nc2cnnc3cc(-c4ccc(S(=O)(=O)N5CCN(C)CC5)cc4)ccc23)nc1	B10R mouse macrophages	cytotoxicity			TC50	9.5 µM
CC(=O)Nc1ccc(O)cc1	MDCK		1 µM, 90 min, pH 7.4 apical, 7.4 basolateral		Papp A to B	8.18 ×10⁻⁶ cm/s and 10.5 ×10⁻⁶ cm/s
Cc1ncc(CO)c(C(=O)O)c1O	HCT-8 infected with Cryptosporidium parvum	Hoechst nuclei count	1 mM, 24 h	relative to: PBS	host cell number	0.98 ± 0.082
C[C@@H](c1ncncc1F)[C@](O)(Cn1cncn1)c1ccc(F)cc1F	MDCK	permeability basolateral to apical	1 µM, 90 min, pH 7.4 apical to 7.4 basolateral		Papp	40.2 ×10⁻⁶ cm/s and 38.1 ×10⁻⁶ cm/s
Nc1ncnc2nc[nH]c12	HCT-8 infected with Cryptosporidium parvum	Hoechst nuclei count	1 mM, 24 h	relative to: PBS	host cell number	1.04 ± 0.022
Cc1cc(C(=O)NC(C)(C)COc2cccc3c2C(N)=NS(=O)(=O)N3)cc(C)n1	human peripheral blood lymphocytes	CBPI, concurrent micronucleus test	250 µg/mL, 4 h, added: rat liver S9	relative to: vehicle control	cytotoxicity	1%

Excerpt of the above:
SMILES	cell line	test	setting	how to read	endpoint	result
C[C@@H](c1ncncc1F)[C@](O)(Cn1cncn1)c1ccc(F)cc1F	MDCK	permeability basolateral to apical	1 µM, 90 min, pH 7.4 apical to 7.4 basolateral		Papp	40.2 ×10⁻⁶ cm/s and 38.1 ×10⁻⁶ cm/s
